Measurements of several laboratories.
Every numbered part comes from another study and shows a few of its results, in no order.

Study 1 — mode: antagonist
Target: Beta-1 adrenergic receptor (ADRB1, Homo sapiens, UniProt P08588)
UniProt P08588, sequence (whole entry, looked up): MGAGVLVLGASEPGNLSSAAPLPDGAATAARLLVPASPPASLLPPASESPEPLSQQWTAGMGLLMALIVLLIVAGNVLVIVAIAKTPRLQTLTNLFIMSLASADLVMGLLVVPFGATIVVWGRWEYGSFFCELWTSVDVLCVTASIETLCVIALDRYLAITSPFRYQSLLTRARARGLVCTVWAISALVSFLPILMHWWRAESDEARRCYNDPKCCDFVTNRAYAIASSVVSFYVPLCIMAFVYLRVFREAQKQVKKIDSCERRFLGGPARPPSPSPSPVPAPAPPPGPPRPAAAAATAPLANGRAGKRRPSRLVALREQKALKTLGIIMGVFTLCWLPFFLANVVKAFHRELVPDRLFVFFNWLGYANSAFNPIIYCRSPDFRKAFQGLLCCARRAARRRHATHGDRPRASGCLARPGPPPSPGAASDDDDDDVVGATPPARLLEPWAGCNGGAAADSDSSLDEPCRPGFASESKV
`COc1ccccc1N1CCN([S+](=O)([O-])c2ccc(C)cc2OC)CC1` gave an IC50 of ≥ 100 µM.
With `O=C1OC2(c3ccc(O)cc3Oc3cc(O)ccc32)c2ccc(N=C=S)cc21` the IC50 was 31.6 µM.
`O=C1Nc2ccc(I)cc2/C1=C/c1cc(Br)c(O)c(Br)c1` has an IC50 of ≥ 100 µM.
With `O=C1CCN(Cc2ccccc2OCC(O)CN2CCCCC2)CCN1` (centres unmarked) the IC50 was ≥ 100 µM.
The IC50 of `Cc1c(CN2CCC(Nc3ncnc4sc(CC(F)(F)F)cc34)CC2)ccc2c1cc(C#N)n2Cc1cn[nH]c1` is reported as ≥ 100 µM.
The IC50 of `COc1cccc(F)c1-c1ncc2c(n1)OCCN(c1cccc(C(F)(F)F)c1)C2=O` is reported as ≥ 100 µM.
For `CC(C)c1ccc(Nc2n[nH]c(C(O)C3CC3)n2)cc1` (centres unmarked), the IC50 was ≥ 100 µM.
For `COc1ccccc1N1CCN([S+](=O)([O-])c2ccc(OC(F)(F)F)cc2)CC1`, the IC50 was ≥ 100 µM.
`COc1ccc2c(C)cc(=O)oc2c1` gave an IC50 of ≥ 100 µM.
`CN(Cc1ccc(CCN)cc1)Cc1ccc2nsnc2c1` has an IC50 of ≥ 100 µM.
`Cc1cc(=O)oc2cc(OCC(=O)NC3CCCc4c3[nH]c3ccccc43)ccc12` (centres unmarked) has an IC50 of ≥ 100 µM.
`Cc1noc2c(N3CCOCC3)cc(-c3ccc(F)cc3)nc12` gave an IC50 of 5.01 µM.
For `COCCNCc1ccc(-c2cc3nccc(Oc4ccc(NC(=O)C5(C(=O)Nc6ccc(F)cc6)CC5)cc4F)c3s2)nc1`, the IC50 was ≥ 100 µM.
`O=C(Nc1ccc([C@@H](O)[C@H]2COCC(=O)N2CCCc2ccccc2)cc1)C1CCC1` gave an IC50 of ≥ 100 µM.
The IC50 of `Cc1ccc(-c2cc(-c3cccnc3)nc3c(C)noc23)c(C)c1` is reported as ≥ 100 µM.
`O=c1c(Cl)c(NC(c2ccccc2)c2cccs2)cnn1-c1ccc(C(F)(F)F)cn1` (centres unmarked) has an IC50 of ≥ 100 µM.
The IC50 of `Cc1noc2c(N(C)C)cc(-c3cccnc3)nc12` is reported as ≥ 100 µM.
`COc1ccccc1N1CCN([C@@H]2[C@H](O)[C@H](CO)O[C@@H]2CNC(C)C)CC1` has an IC50 of ≥ 100 µM.
The IC50 of `Cc1noc2c(-c3cccnc3N3CC(O)C3)cc(-c3ccccc3)nc12` is reported as ≥ 100 µM.
`OC(c1cccc(C(F)(F)F)c1)c1nc(Nc2ccc(N3CCOCC3)cc2)n[nH]1` (centres unmarked) gave an IC50 of 28.2 µM.
For `CC(C)(C)CC(O)CNc1nc(C(F)(F)F)ns1` (centres unmarked), the IC50 was ≥ 100 µM.
For `CCCc1cc(=O)n2nc(N(CC)Cc3cnn(C)c3)sc2n1`, the IC50 was ≥ 100 µM.
`CCOc1ccc(C(O)Cn2ccn3nc(-c4ccccc4C)cc3c2=O)cc1` (centres unmarked) gave an IC50 of ≥ 100 µM.
The IC50 of `Cc1noc(C)c1-c1cc2cc(CO)oc2c(NC2CCOCC2)n1` is reported as ≥ 100 µM.
`COc1ccccc1NC(=O)c1cc2c(ccc3ccccc32)oc1=O` has an IC50 of ≥ 100 µM.

Study 2 — read-out: enzyme activity; mode: inhibitor; tested at: 0.5 µM; reference: control
Target: Ephrin type-A receptor 1 (EPHA1, Homo sapiens, UniProt P21709)
Residues (P21709 1-976): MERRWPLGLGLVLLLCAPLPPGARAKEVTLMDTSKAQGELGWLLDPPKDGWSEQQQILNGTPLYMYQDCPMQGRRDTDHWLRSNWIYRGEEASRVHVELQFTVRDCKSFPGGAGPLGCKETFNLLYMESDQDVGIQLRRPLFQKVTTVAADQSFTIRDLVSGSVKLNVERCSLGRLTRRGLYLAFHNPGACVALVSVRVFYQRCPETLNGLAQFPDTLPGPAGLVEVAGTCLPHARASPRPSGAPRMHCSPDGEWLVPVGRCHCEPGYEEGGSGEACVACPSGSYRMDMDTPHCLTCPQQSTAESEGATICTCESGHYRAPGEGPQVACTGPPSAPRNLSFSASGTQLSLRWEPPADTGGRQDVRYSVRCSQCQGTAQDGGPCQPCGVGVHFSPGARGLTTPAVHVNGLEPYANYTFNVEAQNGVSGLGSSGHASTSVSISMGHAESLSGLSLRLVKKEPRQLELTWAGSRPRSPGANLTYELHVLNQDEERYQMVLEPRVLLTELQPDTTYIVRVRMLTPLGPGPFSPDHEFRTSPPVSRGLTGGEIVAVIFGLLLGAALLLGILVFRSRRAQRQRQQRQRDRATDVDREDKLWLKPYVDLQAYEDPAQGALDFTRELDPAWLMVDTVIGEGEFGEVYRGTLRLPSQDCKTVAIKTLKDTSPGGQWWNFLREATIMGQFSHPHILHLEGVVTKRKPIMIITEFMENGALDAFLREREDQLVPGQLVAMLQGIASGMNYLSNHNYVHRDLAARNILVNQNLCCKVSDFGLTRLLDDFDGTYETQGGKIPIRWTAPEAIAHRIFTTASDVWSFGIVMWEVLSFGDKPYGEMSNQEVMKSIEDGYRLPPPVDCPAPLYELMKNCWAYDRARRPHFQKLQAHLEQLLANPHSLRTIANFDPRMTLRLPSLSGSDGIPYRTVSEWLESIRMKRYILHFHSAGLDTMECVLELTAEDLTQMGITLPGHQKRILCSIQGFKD
For `O=c1cc(N2CCOCC2)oc2c1ccc1ccccc12`, the remaining activity was 94.2%.
The remaining activity of `Cc1nc(Nc2ncc(C(=O)Nc3c(C)cccc3Cl)s2)cc(N2CCN(CCO)CC2)n1` is reported as 2.72%.
With `C[S+]([O-])c1ccc(-c2nc(-c3ccncc3)c(-c3ccc(F)cc3)[nH]2)cc1` (centres unmarked) the remaining activity was 97%.
With `CC(C)[C@H](CO)Nc1nc(Nc2cccc(Cl)c2)c2ncn(C(C)C)c2n1` the remaining activity was 98.3%.
With `CCC(=O)Nc1ccc2ncnc(Nc3cccc(Br)c3)c2c1` the remaining activity was 89.5%.
The remaining activity of `COc1cc2ncc(-c3ccccc3)nc2cc1OC` is reported as 95.8%.
`O=C1NC(=O)/C(=C/c2ccc3nccnc3c2)S1` gave a remaining activity of 91.8%.
`COc1ccc(-c2cnc3c(-c4ccsc4)cnn3c2)cc1` has a remaining activity of 91.5%.
`CN(C)CCCn1cc(C2=C(c3c[nH]c4ccccc34)C(=O)NC2=O)c2ccccc21` has a remaining activity of 89.9%.
For `CC(C)c1nn(-c2c(Cl)cccc2Cl)c2nc(Cc3ccc(OCCO)cc3)[nH]c(=O)c12`, the remaining activity was 95%.
With `Nc1[nH]nc2nnc(-c3c(-c4ccccc4)nn4ccccc34)cc12` the remaining activity was 92.6%.
The remaining activity of `CS(=O)(=O)CCNCc1ccc(-c2ccc3ncnc(Nc4ccc(OCc5cccc(F)c5)c(Cl)c4)c3c2)o1` is reported as 99.3%.
With `Cn1cc(/C=C2\C(=O)Nc3ccc(S(N)(=O)=O)cc32)c2ccccc21` the remaining activity was 101%.
With `COc1cc2ncnc(Nc3ccc(OCc4ccccc4)cc3)c2cc1OC` the remaining activity was 102%.
`CCN1/C(=C/C(C)=O)Sc2ccc(OC)cc21` has a remaining activity of 95.8%.
`COc1cc2ncnc(N3CCN(C(=O)Nc4ccc(Oc5ccccc5)cc4)CC3)c2cc1OC` has a remaining activity of 102%.
`Cn1cnc2cc3c(Nc4cccc(Br)c4)ncnc3cc21` gave a remaining activity of 84.4%.
With `CC(=O)O/N=C1/C(c2c(O)[nH]c3cc(Br)ccc23)=Nc2ccccc21` the remaining activity was 83.2%.
The remaining activity of `Cc1ccc(NC(=O)c2ccc(CN3CCN(C)CC3)cc2)cc1Nc1nccc(-c2cccnc2)n1` is reported as 99.9%.
With `O=C(Nc1ccc(Cl)cc1)c1ccccc1NCc1ccncc1` the remaining activity was 97%.
`CCOc1cc2ncnc(Nc3cccc(Br)c3)c2cc1OCC` gave a remaining activity of 84.7%.
For `COc1ccc(Cl)cc1NC(=O)Nc1cc(C)nc2ccccc12`, the remaining activity was 88.6%.

Study 3 — cell line: Huh-7; tested at: 10 µM; time: 24 h
`N[C@@H](Cc1cc(I)c(Oc2cc(I)c(O)c(I)c2)c(I)c1)C(=O)O` has a viability of 99.4%.
For `CC(C)(CO)C(O)C(=O)NCCCO` (centres unmarked), the viability was 106%.
With `CNC(=C[N+](=O)[O-])NCCSCc1ccc(CN(C)C)o1` the viability was 99.9%.
`CC(=O)OCC(=O)[C@@]12OC(C)(C)O[C@@H]1C[C@H]1[C@@H]3C[C@H](F)C4=CC(=O)C=C[C@]4(C)[C@@]3(F)[C@@H](O)C[C@@]12C` gave a viability of 98.6%.
With `Cc1ccsc1/C=C/C1=NCCCN1C` the viability was 100%.
`CC(=O)OCC(COC(C)=O)OC(C)=O` gave a viability of 98%.
The viability of `C[C@@H]1CCC[C@H](C)N1NC(=O)c1ccc(Cl)c(S(N)(=O)=O)c1` is reported as 99.9%.
For `O=C(O)c1cn(-c2ccc(F)cc2)c2cc(N3CCNCC3)c(F)cc2c1=O`, the viability was 92.8%.
`NC12CC3CC(CC(C3)C1)C2` has a viability of 98.3%.
`CN(C)CCOC(=O)C(c1ccccc1)C1(O)CCCC1` (centres unmarked) has a viability of 101%.
`CCCCOC(=O)c1ccc(N)cc1` gave a viability of 97.6%.

Study 4 — read-out: radioligand binding; technique: radioligand displacement; tested at: 10 µM
Target: Translocator protein (Tspo, Rattus norvegicus, UniProt P16257)
UniProt P16257, sequence (whole entry, looked up): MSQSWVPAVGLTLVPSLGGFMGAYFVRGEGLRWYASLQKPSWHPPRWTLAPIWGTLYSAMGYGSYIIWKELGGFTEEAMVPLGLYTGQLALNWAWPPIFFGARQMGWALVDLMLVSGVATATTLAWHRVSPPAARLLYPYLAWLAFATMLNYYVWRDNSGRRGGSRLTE
With `Nc1nc(NCc2ccccc2)nc(-c2cccc(CO)c2)n1` the inhibition was -14.9%.
The inhibition of `C[C@@]1(Cc2ccc(C#N)cc2)C(=O)N(c2cc(Cl)cc(Cl)c2)c2ncc(C(=O)NC3(c4nc(C5CCC5)no4)CC3)n21` is reported as -15.2%.
With `CNC(=O)c1cc(C(=O)N[C@H]2[C@@H]3COC[C@@H]32)cc2c1O[C@@H](CF)[C@@H]2c1ccccc1` the inhibition was -12.5%.
`CSc1cccnc1N1CCN(Cc2nc3ccccc3[nH]2)CC1` gave an inhibition of -16.4%.
With `CCCOc1ccc([C@H]2[C@H](C(=O)O)[C@@H](c3ccc4c(c3)OCO4)CN2CC(=O)Nc2c(CC)cccc2CC)cc1` the inhibition was 16.5%.
`C[C@H](c1ccnc(Nc2nc3ccc(-c4cc(N(C)C)ncn4)cc3[nH]2)c1)N1CCN(C(=O)CC(F)(F)F)CC1` has an inhibition of -2.73%.
The inhibition of `O=C1CCc2cc(Nc3cc(OC4CCOCC4)c([N+](=O)[O-])cc3Cl)ccc2N1` is reported as 13.4%.
With `C[C@@H]1CN(c2cc(-c3n[nH]c4ccc(OC5(C)CC5)cc34)ncn2)C[C@H](C)O1` the inhibition was 5.96%.
`COCCOc1nc(-c2ccc(Cl)nc2)nc2c1CN(C(=O)c1ncn3ccccc13)CC2` gave an inhibition of 24.9%.
For `NC(=O)c1ccc2nc(-c3ccc(C4(N)CCC4)cc3)c(-c3ccccc3)n2n1`, the inhibition was 40.5%.
For `Cc1nc(C2CCN(C(=O)c3ccc(OC(F)(F)F)cc3N)CC2)c2ncc(N3CCN(C)CC3)cc2n1`, the inhibition was -4.32%.
`CC[C@H](CC(=O)O)n1c(=O)c2ncccc2n(Cc2cn(C)c3cc(C)cc(C)c23)c1=O` gave an inhibition of 12.2%.
The inhibition of `COc1cc(-c2cn(C3CCc4c(F)cccc4N(CC(F)(F)F)C3=O)nn2)ccc1-n1cnc(C)c1` (centres unmarked) is reported as 8.82%.
`CCC(=O)N[C@@H]1CC[C@H](C(=O)N(C)c2ccc(-c3nc4ccccc4o3)cc2)C1` gave an inhibition of 5.21%.
For `O=C(NNS(=O)(=O)c1ccccc1F)c1cc(F)cc(-c2ccccn2)c1`, the inhibition was 47%.
The inhibition of `CNC(=O)Nc1ccc2c(c1)CC[C@@]21OC(=O)N(CC(=O)N(Cc2ccc(F)cc2)[C@@H](C)C(F)(F)F)C1=O` is reported as 60%.
